Measurements collected from several papers.
± marks the error that the study gave.

CC[C@H](CC[C@@H](C)[C@H]1CC[C@H]2[C@@H]3CC=C4C[C@@H](O)CC[C@]4(C)[C@H]3CC[C@]12C)C(C)C gave an IC50 of 233 µg/mL (MCF-10A; cell growth or viability, resazurin; 24 h).
For C=CC(=O)N1CCC([C@@H]2CCNc3c(C(N)=O)c(-c4ccc(Oc5ccccc5)cc4)nn32)CC1, the IC50 was 10.9 µM (SU-DHL-6; cell growth or viability, CCK-8; 72 h).
The IC50 of Cc1c(-c2ccc(-c3ccccc3F)cc2)nc2ccc(F)cc2c1C(=O)O is reported as 0.1 µM (MOLM-13; cell growth or viability, MTT; 48 h).
CCN(CC)CC1CCN(c2ncc3ncnc(Nc4ccc(F)c(Cl)c4)c3n2)CC1 gave an IC50 of 3.1 ± 0.7 µM (H2030 (EGFR wild type); cell viability, Alamar Blue; 120 h).
CCNC(=O)Nc1ccc(S(=O)(=O)Oc2cnccc2C)cc1 has an IC50 of 3 µM (MOLM-13; cell growth or viability, MTT; 48 h).
COC1=C(OC)[C@H](O)[C@H](C/C=C(\C)CC/C=C(\C)CCC=C(C)C)[C@@H](C)C1=O gave an IC50 of 8.9 µM (Hep3B; cell growth or viability, MTS; 72 h).
For O=c1c2ccccc2c(-c2nnc(SCNc3ccccc3Cl)o2)nn1CNc1ccccc1Cl, the IC50 was ~23 µM (WI-38; MTT; 48 h).
With O=C1C(=Cc2ccccc2)CN(C(=O)c2cccc(C(=O)N3CC(=Cc4ccccc4)C(=O)C(=Cc4ccccc4)C3)c2)CC1=Cc1ccccc1 the IC50 was 12.5 µM (Molt4/C8; cell growth or viability).
For CC(C(=O)[O-])C(=O)[O-].CC(C(=O)[O-])C(=O)[O-].NCCN.[Pt+4], the IC50 was > 200 µM (SW480; cell viability, MTT; 96 h).
Oc1ccc(/C=C/c2cccc(O)c2)cc1 gave an IC50 of > 25 µg/mL (HL-60; ROS generation, inhibitor, DCFH-DA; together with: PMA).
The IC50 of O=c1c(/C=C/c2ccccc2)nc2ccccc2n1Cc1ccccc1 is reported as > 50 µM (HeLa 229; cell growth or viability, MTT; 72 h).
CCCCNc1ccc(C(=O)OCCN(CC)CC)c(OC)c1 has an IC50 of 0.035 µM (ventricular myocytes R176Q mouse; Ca2+ spark frequency; 2 h, together with: isoproterenol 100 nM).
With CC(C)(C)OC(=O)NCC(=O)OC1CCC2(C)C(C(O)CC3(C)C2CC(O)C2C(C4(C)CCCC(C)(C)O4)CCC23C)C1(C)C (centres unmarked) the IC50 was < 0.3 µM (Hep3B; HRE reporter gene, inhibitor; 24 h, hypoxia).
With CC[N+](CC)(CC)CC(=O)Nc1ccc(/N=N/c2ccc(NC(=O)c3ccccc3)cc2)cc1 the IC50 was 1.3 µM (HEK293 expressing Sh-IR; potassium current, blocker, inside-out patch clamp; 500 nm light, trans-enriched).
CCN1C(=O)C(n2nc(-c3c(O)c4ccccc4oc3=O)cc2-c2ccc(F)cc2)c2cc(Br)ccc21 (centres unmarked) has an IC50 of 38.6 µM (A-375; cell growth or viability, SRB; 72 h).
CC(=O)c1ccc(NC(=O)CSc2nnc(-c3ccc(NC(=O)c4cccnc4)cc3)o2)cc1 has an IC50 of 1.4 µM (RAW264.7; IL-6 release, inhibitor, ELISA; LPS-stimulated).
With O=C1C(n2nc(-c3c(O)c4ccccc4oc3=O)cc2-c2ccc(Br)cc2)c2cc(Cl)ccc2N1Cc1ccccc1 (centres unmarked) the IC50 was 4.36 µM (A-375; cell growth or viability, SRB; 72 h).
Cc1ccc(NC(=O)CSc2nnc(-c3ccc(NC(=O)c4cccnc4)cc3)o2)cc1 gave an IC50 of 18.9 µM (RAW264.7; NO release, inhibitor, Griess; LPS-stimulated).
O=c1c(O)c(-c2ccc(O)c(O)c2)oc2cc(O)cc(O)c12 gave an IC50 of 37 µM (THP-1; cell growth or viability, ATP luminescence; 24 h).
CCSc1nnc(-c2n[nH]c(=O)c3ccccc23)o1 has an IC50 of 39.1 µM (WI-38; cell growth or viability, MTT; 48 h).
With CCCC1(C)C(C#N)(C#N)C1(C#N)C#N the IC50 was 2.32 µM (THP-1; TNF-α production, HTRF; 17 h, together with: 1 µg/mL LPS).
With O=C(CSc1nnc(-c2ccc(NC(=O)c3cccnc3)cc2)o1)Nc1ccccc1Cl the IC50 was 9 µM (RAW264.7; reactive oxygen species, inhibitor, fluorescence; LPS-stimulated).
With O=c1[nH]c2ccccc2nc1/C=C/c1cccs1 the IC50 was 46.2 µM (HeLa 229; cell growth or viability, MTT; 72 h).

A few entries again:
For CC(C(=O)[O-])C(=O)[O-].CC(C(=O)[O-])C(=O)[O-].NCCN.[Pt+4], the IC50 was > 200 µM (SW480; cell viability, MTT; 96 h).
Oc1ccc(/C=C/c2cccc(O)c2)cc1 gave an IC50 of > 25 µg/mL (HL-60; ROS generation, inhibitor, DCFH-DA; together with: PMA).
The IC50 of O=c1c(/C=C/c2ccccc2)nc2ccccc2n1Cc1ccccc1 is reported as > 50 µM (HeLa 229; cell growth or viability, MTT; 72 h).
